Assay results of several laboratories.
Every numbered part comes from another study and shows a few of its results, in no order. Substitutions count along the parent as printed.

Block 1 — method: RNA Bind-n-Seq; form: RNA; medium: in vitro; concentration: not given; setting: RNA with constant flanks, ends assumed; baseline: input RNA pool; reading: higher = stronger binding
Target: RING finger protein unkempt homolog, zinc fingers 1-6, GST-SBP tag (UNK, Homo sapiens, UniProt Q9C0B0, residues 30-357)
Residues (chain): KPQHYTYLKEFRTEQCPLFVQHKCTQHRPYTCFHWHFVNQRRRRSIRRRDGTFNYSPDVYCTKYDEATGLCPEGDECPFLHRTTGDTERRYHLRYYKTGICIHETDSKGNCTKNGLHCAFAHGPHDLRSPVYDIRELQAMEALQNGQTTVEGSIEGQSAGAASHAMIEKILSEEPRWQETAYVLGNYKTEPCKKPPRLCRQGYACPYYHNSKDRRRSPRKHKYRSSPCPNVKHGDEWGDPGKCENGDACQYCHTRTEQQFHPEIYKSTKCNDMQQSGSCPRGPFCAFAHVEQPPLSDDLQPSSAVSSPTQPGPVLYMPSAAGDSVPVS
Sequence	bound/input enrichment [ratio]
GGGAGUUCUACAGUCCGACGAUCGAAGGCAGCAAAAGGCACAGGUCAAGAAGCAGGUCACGAUCUCGGACCAGAAGUUCCUCCCGGUCCCGUAGCCGAUCCCGUUCACGAAGGAGCAAGUCUUACAGCCGAUCAAGGAGCAGGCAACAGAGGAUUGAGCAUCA	0.0629
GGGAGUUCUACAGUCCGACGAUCAAAUAUGACUCAAGUGUGAGUGGUCAAUCAUCUUUUGUGACAUCCCCAGCAGCAGACAACACCGAAAUGCUUCCUCAUUAUGAGCCAAUUCCAUUCAGUUCUUCUAUGAAUGAAUCUGCUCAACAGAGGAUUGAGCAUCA	0.125
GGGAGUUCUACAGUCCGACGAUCAAUAUAAAAGAAUCUCCGAAGAGGCCAGAAACUAGAUCCUUUACUCCUGAAGAAUUCUUCCGUAUUUUCAAUAGAUCCAUUGAUGCCUUUAAGGACUUUAUGGUGGCAUCUGACACUAGUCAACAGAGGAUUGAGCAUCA	2.38
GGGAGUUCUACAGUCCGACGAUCGUUGUGCAGUAGAGUUCAGACUUCUCAUCCAAUCUUAUAUUGUAGGCAUUUCUCAAGUGUUUCCGAUAUUAAUAACUAACAUUGGGAUUUUACUUUGCCAGCCCCAGCCUUCAGAACUCCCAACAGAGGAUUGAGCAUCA	0.463
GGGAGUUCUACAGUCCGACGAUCGAGGAGGAGGGAAAGUCUAGCUCACCAAAGAAAAAGAUCAAGUUGAAGAAAAGUAAAAAUGCCGCAACUGAAGGAACCAGUACCCAGAAAGAAUUUGAAGUGAAAGAUCCUGAGCUGGAGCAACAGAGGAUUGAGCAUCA	0.368
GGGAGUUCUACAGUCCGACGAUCUAAUUUUGGCAGGAGUUAGAAUAAAUCCUUGGAGCCUGGGCCCCUCUGUCCUUGGCCCUCCACCGCCUUCUCGCUAGAGGGGGAAAGAAGGUUCUCGGGCCGGCCCCACUACCAAGCAUACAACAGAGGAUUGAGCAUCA	0.216
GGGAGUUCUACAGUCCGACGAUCAUGAUGAAGCUAUCAGAAGAAAAUCGGCACCUGAGAGAUGAAGGUUUAAGGCUCAGAAAGGCCGCACAUUCGGAUAAACCUGGAUCAACCUCAACUGCAUCCUUCAGAGAUAAUGUCACCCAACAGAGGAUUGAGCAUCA	0.0679
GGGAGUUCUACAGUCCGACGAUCGCAUCUAUCGAGUUUGCAAUGUCACAACCUCUCUGAUCUUGUGCUCAGCAUGAUUCUUUAACCGAAGUUUUAUUUUUUCGUGCACUCUGCUAAUCAUGUGGGUGAGCCAGUGGAACAGCGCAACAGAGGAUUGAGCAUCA	0.262
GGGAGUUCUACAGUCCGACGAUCGCCAAAUACGUCUGGGCAGCCACGGCCGGGGGCGUCUUUCAGAGCAUUACGCCAACCGAAACCGAUAUGAUUGUAGGAAAAGACCGGGAAGGUUUCUUUACCAACGGUUUGACUCUUGGCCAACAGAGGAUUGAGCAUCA	0.118
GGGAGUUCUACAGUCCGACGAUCUAAAGUGUAUUCUGUACAUAAUUUACAAAUAAAACAUUUUAUUUUAAUUGUUACUUAUUAUUCCGAUAUUUCUCAACACUUAAAUUCAUAAAAUUAAGACCAUGUAAGGGUAUGUUUUUACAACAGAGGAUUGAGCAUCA	0.247

Block 2 — target: CCNA2, cyclin fold, Cln2 fusion (human); method: yeast growth competition, sequencing; medium: yeast; setting: strong parent motif; baseline: not given; reading: higher = stronger binding
Starting sequence: ORC1 docking peptide (human); PRARKRLELGNLG
Change	normalised enrichment score
K5C	2.23
A3L	-0.477
R4Q	2.2
K5S	0.793
G13H	5.59

Block 3 — method: protein binding microarray; form: double-stranded DNA, one strand shown; medium: in vitro; concentration: not given; baseline: not given; reading: higher = stronger binding
Target: Histone acetyltransferase KAT6A, both winged helices, GST fusion (KAT6A, Homo sapiens, UniProt Q92794, residues 1-181)
Setting: 8-mer, flanks averaged, mean of 2 arrays, mostly near background
Target sequence (chain): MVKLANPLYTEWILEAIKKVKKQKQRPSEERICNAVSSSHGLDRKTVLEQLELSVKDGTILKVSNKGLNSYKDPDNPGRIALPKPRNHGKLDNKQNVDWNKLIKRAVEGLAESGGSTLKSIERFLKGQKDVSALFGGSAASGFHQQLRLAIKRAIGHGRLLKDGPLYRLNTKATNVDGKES
Sequence	E-score
CGCGAAAG	0.158
ATCGTAGA	-0.0533
AGCGAGGC	0.0334
CCACAACG	0.105
CAGATTTC	-0.0714
GGATCAAA	-0.0823
AAGGGGCG	0.115
CAAAAGAA	-0.0637
ACGTCTTC	0.0416
AACAAGGT	-0.124
CGACCCAC	-0.0557

Block 4 — method: DHFR PCA, deep sequencing; medium: yeast; together with: (+)-ABA 58 µM; baseline: wild-type fitted maximum; reading: higher = stronger binding
Target: ABI1, truncated, D143A, DHFR fusion (Arabidopsis thaliana)
Setting: methotrexate growth selection, single substitutions
Starting sequence: PYL1, truncated, DHFR fusion (Arabidopsis thaliana); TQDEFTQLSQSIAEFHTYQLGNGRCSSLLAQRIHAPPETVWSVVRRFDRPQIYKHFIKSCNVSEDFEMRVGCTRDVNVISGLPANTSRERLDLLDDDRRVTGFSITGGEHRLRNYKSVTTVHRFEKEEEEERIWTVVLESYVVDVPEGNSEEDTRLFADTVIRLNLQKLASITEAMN
Change	relative binding score
V43Q	38.4%
F56V	-0.548%
K168Q	83.9%
N165G	11.3%

Single results of other studies
Substance	target	test	system	setting	how to read	quantity	value
PhoQ, residues 284 288 289 292 302 303 AANNSF	PhoP, residues 12 14 15 18 19 LHHSG (Escherichia coli, UniProt P23836)	Sort-seq, measured: YFP reporter	E. coli	PhoQ-PhoP variant library, together with: 10 µM Mg2+	baseline: high Mg2+ state, higher = stronger signaling	fold induction	11.9

Repeated from above (block 3):
Sequence	E-score
CAGATTTC	-0.0714
GGATCAAA	-0.0823
